Assay results from different studies.
Every numbered part comes from another study and shows a few of its results, in no order. Several values in a cell are separate wells, animals, samples, runs or records.
UniProt P00519, sequence (whole entry, unmodified, looked up): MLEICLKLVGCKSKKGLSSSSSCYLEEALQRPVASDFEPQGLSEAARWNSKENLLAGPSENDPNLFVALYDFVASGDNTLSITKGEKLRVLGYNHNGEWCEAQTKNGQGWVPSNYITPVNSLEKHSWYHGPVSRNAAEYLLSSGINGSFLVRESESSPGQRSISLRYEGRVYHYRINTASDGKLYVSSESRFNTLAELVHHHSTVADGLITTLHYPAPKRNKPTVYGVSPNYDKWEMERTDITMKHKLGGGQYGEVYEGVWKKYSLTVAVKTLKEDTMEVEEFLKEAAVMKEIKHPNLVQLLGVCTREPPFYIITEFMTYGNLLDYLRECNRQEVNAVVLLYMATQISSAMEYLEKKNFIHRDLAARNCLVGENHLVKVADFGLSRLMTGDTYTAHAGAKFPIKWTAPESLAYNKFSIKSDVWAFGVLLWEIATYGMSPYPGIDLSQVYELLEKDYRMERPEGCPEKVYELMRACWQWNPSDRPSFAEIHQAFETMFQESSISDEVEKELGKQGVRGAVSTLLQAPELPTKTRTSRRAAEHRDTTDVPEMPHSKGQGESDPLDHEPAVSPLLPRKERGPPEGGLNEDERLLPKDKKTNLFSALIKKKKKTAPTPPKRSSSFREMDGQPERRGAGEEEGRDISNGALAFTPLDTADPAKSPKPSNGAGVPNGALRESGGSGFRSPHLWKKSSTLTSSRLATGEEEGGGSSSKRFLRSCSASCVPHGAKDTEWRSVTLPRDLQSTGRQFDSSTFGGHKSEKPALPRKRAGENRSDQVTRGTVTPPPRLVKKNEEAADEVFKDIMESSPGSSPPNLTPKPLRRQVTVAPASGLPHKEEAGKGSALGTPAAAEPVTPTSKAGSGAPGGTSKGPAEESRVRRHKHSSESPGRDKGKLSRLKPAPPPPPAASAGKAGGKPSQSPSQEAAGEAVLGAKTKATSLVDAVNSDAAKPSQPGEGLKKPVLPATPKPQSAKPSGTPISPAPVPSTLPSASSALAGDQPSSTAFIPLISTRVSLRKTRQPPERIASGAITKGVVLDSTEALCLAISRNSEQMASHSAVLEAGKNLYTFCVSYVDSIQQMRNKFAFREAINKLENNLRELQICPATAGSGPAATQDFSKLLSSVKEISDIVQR
UniProt Q86YV6, sequence (whole entry, looked up): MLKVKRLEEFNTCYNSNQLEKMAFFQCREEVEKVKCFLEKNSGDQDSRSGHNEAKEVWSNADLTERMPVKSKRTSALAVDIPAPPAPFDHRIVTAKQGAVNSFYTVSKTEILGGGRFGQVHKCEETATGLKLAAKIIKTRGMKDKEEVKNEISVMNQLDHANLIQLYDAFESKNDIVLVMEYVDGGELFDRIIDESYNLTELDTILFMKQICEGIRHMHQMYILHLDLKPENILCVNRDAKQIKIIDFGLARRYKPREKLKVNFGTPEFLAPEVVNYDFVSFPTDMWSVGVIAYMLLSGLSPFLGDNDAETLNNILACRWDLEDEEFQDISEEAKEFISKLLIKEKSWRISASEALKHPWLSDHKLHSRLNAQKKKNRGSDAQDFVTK

Block 1 — concentration: 1 µM
SMILES: Cc1ccc(NC(=O)c2ccnc(C(F)(F)F)c2)cc1-c1cc(OCCO)nc(N2CCOCC2)c1
| target | test | remaining binding |
| --- | --- | --- |
| DCLK2 (Homo sapiens, UniProt Q8N568) | binding | 100% |
| Tyrosine-protein kinase JAK2, JH1 (JAK2, Homo sapiens, UniProt O60674) | cell-free assay, competition with immobilised ligand | 69% |
| PKMYT1 (Homo sapiens, UniProt Q99640) | binding, competition with immobilised ligand | 93% |
| MYLK4 (Homo sapiens, UniProt Q86YV6) | binding | 96% |
| ABL1 (Homo sapiens, UniProt P00519, H396P) | – | 83% |
| HCK (Homo sapiens, UniProt P08631) | binding, competition with immobilised ligand | 95% |
| ABL1 (Homo sapiens, UniProt P00519, T315I) | – | 77% and 100% |
| MAP3K3 (Homo sapiens, UniProt Q99759) | binding, competition with immobilised ligand | 100% |
| MELK (Homo sapiens, UniProt Q14680) | binding | 65% |
| MINK1 (Homo sapiens, UniProt Q8N4C8) | binding, competition with immobilised ligand | 83% |
| MST1R (Homo sapiens, UniProt Q04912) | binding | 87% |

Block 2 — action: inhibitor; concentration: concentration not given; setting: average; together with: without ssDNA
Target: DNA polymerase theta, helicase domain (POLQ, Homo sapiens, UniProt O75417)
UniProt O75417, sequence (whole entry, looked up): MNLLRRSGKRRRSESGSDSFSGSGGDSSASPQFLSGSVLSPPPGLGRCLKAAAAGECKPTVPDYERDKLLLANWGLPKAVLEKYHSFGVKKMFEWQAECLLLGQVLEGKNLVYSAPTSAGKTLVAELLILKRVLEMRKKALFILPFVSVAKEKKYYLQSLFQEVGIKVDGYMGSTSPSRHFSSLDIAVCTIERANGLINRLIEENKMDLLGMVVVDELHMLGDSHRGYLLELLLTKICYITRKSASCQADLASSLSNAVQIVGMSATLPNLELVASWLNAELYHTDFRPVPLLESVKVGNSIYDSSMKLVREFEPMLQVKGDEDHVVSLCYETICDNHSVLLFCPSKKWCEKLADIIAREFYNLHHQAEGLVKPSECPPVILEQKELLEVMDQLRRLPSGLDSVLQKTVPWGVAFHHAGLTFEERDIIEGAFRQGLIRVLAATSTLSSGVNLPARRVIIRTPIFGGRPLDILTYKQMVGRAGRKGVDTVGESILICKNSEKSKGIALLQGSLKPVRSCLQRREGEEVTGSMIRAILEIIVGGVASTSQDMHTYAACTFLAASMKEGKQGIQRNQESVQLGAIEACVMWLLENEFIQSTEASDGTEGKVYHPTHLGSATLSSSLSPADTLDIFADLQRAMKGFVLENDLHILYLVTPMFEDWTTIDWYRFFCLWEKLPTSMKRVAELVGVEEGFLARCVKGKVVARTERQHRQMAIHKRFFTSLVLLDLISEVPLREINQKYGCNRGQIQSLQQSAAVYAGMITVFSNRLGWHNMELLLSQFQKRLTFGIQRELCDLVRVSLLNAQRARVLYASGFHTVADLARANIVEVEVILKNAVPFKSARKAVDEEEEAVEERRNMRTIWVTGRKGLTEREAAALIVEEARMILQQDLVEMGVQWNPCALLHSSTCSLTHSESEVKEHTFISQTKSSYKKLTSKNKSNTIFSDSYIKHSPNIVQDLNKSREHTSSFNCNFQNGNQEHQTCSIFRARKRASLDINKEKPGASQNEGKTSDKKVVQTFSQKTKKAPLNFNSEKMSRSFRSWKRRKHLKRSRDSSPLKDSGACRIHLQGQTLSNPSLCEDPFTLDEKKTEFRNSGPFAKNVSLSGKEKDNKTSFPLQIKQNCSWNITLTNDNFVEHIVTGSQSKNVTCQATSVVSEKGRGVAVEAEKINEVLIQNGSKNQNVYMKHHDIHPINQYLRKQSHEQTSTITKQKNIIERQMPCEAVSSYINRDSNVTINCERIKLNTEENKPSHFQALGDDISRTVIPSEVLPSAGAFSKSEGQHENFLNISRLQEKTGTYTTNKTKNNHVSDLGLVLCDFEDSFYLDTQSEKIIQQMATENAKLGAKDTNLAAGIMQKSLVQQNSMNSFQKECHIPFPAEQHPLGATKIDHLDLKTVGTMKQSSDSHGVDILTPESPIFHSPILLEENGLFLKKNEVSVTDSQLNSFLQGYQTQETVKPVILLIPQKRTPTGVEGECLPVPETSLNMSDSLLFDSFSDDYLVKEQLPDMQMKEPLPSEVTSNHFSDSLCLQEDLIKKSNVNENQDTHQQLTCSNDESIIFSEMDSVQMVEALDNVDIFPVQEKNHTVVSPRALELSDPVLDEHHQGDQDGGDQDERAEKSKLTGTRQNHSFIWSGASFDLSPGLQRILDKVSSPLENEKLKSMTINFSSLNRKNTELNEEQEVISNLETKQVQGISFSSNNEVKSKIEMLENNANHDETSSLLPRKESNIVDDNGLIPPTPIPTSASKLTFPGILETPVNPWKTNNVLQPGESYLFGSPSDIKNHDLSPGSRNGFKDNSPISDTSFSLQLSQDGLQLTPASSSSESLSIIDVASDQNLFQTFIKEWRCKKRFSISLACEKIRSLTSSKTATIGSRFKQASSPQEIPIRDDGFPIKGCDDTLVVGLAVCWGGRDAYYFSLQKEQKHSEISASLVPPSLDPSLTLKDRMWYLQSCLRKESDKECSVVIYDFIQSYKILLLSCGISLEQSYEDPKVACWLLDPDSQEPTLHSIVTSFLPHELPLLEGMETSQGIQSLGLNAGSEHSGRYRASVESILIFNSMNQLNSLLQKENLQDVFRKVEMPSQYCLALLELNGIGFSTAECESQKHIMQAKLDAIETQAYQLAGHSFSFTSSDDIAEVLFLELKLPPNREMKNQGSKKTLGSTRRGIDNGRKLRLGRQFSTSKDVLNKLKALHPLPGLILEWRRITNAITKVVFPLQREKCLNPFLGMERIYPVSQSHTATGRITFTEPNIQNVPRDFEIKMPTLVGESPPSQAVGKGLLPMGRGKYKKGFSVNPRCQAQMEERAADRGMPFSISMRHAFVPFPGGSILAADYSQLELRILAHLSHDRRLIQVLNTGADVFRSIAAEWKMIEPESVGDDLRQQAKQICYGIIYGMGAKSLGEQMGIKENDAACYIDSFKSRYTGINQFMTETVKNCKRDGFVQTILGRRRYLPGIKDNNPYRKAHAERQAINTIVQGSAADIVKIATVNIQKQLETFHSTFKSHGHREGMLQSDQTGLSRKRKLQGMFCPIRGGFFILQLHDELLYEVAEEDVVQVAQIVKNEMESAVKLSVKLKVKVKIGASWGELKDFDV
| SMILES | remaining activity [%] |
| --- | --- |
| CCOc1ccccc1NC(=O)CSc1ncc(S(=O)(=O)c2ccc(C(C)(C)C)cc2)c(=O)[nH]1 | 70.5 |
| Cc1ccc(-c2n[nH]c3c2C(c2cccc(O)c2)N(c2ccc(C(=O)O)cc2)C3=O)cc1 (centres unmarked) | 61 |
| CCCCCCCC/C=C\CCCCCCCC(=O)O | 99.4 |
| COc1ccc(C(=O)Nc2noc3ccccc23)cc1 | 63.4 |
| Cc1ccc(NC(=O)CSc2ncc(S(=O)(=O)c3ccc(C(C)C)cc3)c(=O)[nH]2)cc1C | 84.7 |
| O=C(CSc1ncc(S(=O)(=O)c2ccc(Br)cc2)c(=O)[nH]1)NCc1ccc(Cl)cc1 | 62.2 |
| CC(C)(C)c1ccc(S(=O)(=O)c2cnc(SCC(=O)Nc3ccc4c(c3)OCCO4)[nH]c2=O)cc1 | 70.6 |
| CC(=O)Oc1cccc2c1C(=O)c1c(OC(C)=O)cc(C(=O)O)cc1C2=O | 58.2 |

Block 3 — read-out: cell-free assay; method: competition with immobilised ligand; concentration: 1 µM
Compound: O=C1NC(c2ccccn2)Sc2ccccc21 (centres unmarked)
| target | remaining binding [%] |
| --- | --- |
| CDK9 (Homo sapiens, UniProt P50750) | 100 |
| CSNK1G2 (Homo sapiens, UniProt P78368) | 88 |
| GRK2 (Homo sapiens, UniProt P25098) | 58 |
| TYRO3 (Homo sapiens, UniProt Q06418) | 76 |
| ALK (Homo sapiens, UniProt Q9UM73) | 89 |
| CHEK1 (Homo sapiens, UniProt O14757) | 88 |
| SYK (Homo sapiens, UniProt P43405) | 75 |
| MAP3K7 (Homo sapiens, UniProt O43318) | 99 |
| BRAF (Homo sapiens, UniProt P15056) | 90 |
| EPHB6 (Homo sapiens, UniProt O15197) | 78 |
| CSNK1G1 (Homo sapiens, UniProt Q9HCP0) | 90 |
| MAP4K1 (Homo sapiens, UniProt Q92918) | 95 |

Block 4 — read-out: enzyme activity; action: inhibitor; concentration: 0.5 µM; relative to: control
Target: Mitogen-activated protein kinase kinase kinase kinase 2 (MAP4K2, Homo sapiens, UniProt Q12851)
UniProt Q12851, sequence (whole entry, looked up): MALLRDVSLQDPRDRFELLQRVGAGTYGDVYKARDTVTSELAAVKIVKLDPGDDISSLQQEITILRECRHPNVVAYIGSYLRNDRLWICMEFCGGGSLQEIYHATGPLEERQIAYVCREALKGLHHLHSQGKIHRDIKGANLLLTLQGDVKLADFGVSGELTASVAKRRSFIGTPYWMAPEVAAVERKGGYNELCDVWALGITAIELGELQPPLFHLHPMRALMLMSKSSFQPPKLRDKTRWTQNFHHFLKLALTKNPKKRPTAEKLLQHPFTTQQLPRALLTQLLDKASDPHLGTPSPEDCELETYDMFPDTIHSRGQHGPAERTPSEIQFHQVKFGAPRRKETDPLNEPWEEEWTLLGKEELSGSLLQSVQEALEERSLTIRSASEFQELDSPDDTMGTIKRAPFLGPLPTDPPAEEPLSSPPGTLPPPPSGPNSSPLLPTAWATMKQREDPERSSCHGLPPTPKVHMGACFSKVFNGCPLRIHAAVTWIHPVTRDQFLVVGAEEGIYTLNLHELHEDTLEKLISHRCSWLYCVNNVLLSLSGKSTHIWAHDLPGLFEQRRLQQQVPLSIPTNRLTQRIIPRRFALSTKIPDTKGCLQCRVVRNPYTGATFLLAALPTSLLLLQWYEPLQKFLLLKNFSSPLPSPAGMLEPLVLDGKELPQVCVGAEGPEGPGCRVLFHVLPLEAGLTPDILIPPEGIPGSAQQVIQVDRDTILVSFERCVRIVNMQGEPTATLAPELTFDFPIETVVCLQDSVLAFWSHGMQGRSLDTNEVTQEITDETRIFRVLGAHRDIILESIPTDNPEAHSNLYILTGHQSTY
| SMILES | remaining activity |
| --- | --- |
| COc1ccc(OC)c2c(=S)c3ccccc3[nH]c12 | 96.5% |
| Cc1cccc(-c2[nH]c(C(C)(C)C)nc2-c2ccc3c(c2)OCO3)n1 | 102% |
| O=C(CCCc1ccc(-c2ccccc2F)cc1)Nc1ccc(O)cc1 | 104% |
| Nc1ccc2ncnc(NCCc3ccc(Oc4ccccc4)cc3)c2c1 | 100% |
| O=C1NC(=O)C(c2cn(CCCO)c3ncccc23)=C1c1cnccn1 | 67.4% |
| C#Cc1cccc(Nc2ncnc3cc(OCCOC)c(OCCOC)cc23)c1 | 105% |
| CCOC(=O)c1c(C)[nH]c(/C=C2\C(=O)Nc3ccccc32)c1C | 95.5% |
| Nc1[nH]nc2nc3ccccc3nc12 | 91.7% |
| Cc1nc(-c2ccccc2)c(-c2ccncc2)o1 | 106% |
| Nc1ncnc2n[nH]c(Nc3ccc(F)cc3)c12 | 88.9% |
| COc1cc2nccc(Oc3ccc(NC(=S)NC(=O)c4ccccc4C)cc3)c2cc1OC | 92.9% |
| OCC(O)CCON=C1C(c2c(O)[nH]c3ccccc23)=Nc2ccccc21 (centres unmarked) | 51.7% |
| COc1ccc(CNC(=O)Nc2ncc([N+](=O)[O-])s2)cc1 | 113% |
| CO[C@H]1C[C@@H]2CC[C@@H](C)[C@@](O)(O2)C(=O)C(=O)N2CCCC[C@H]2C(=O)O[C@H]([C@H](C)C[C@@H]2CC[C@@H](O)[C@H](OC)C2)CC(=O)[C@H](C)/C=C(\C)[C@@H](O)[C@@H](OC)C(=O)[C@H](C)C[C@H](C)/C=C/C=C/C=C/1C | 111% |
| O=C1NC(=O)C(c2cn(CCCn3ccnc3)c3ccccc23)=C1Nc1ccccc1 | 85.7% |
| NCCNc1ncc(C(N)=O)c(Nc2cccc(C(F)(F)F)c2)n1 | 29.8% |

A few entries again (block 4):
| SMILES | remaining activity |
| --- | --- |
| C#Cc1cccc(Nc2ncnc3cc(OCCOC)c(OCCOC)cc23)c1 | 105% |
| OCC(O)CCON=C1C(c2c(O)[nH]c3ccccc23)=Nc2ccccc21 (centres unmarked) | 51.7% |
| Nc1[nH]nc2nc3ccccc3nc12 | 91.7% |
| COc1ccc(OC)c2c(=S)c3ccccc3[nH]c12 | 96.5% |
| O=C1NC(=O)C(c2cn(CCCn3ccnc3)c3ccccc23)=C1Nc1ccccc1 | 85.7% |
| Nc1ncnc2n[nH]c(Nc3ccc(F)cc3)c12 | 88.9% |
| O=C(CCCc1ccc(-c2ccccc2F)cc1)Nc1ccc(O)cc1 | 104% |
